Measurements collected from several papers.
Lines come from different studies, so protocols differ. Numbers after ± are the reported error.
Cell line: U-87 MG

`CNS(=O)(=O)Nc1nccc(Cc2c(C)c3ccc(Oc4ncccc4F)cc3oc2=O)c1F` gave an IC50 of 181 nM (cell viability, inhibitor, CellTiter-Glo; 7 days).
The cell uptake of `N#C[C@@H]1CC(F)(F)CN1C(=O)CNC(=O)c1ccnc2c(NC(=O)[C@H](CCCCNC(=O)CCOCCOCCOCCOCCOCCOCCNC(=O)CN3CCN(CC(=O)[O-])CCN(CC(=O)[O-])CCN(CC(=O)[O-])CC3)NC(=O)CCCc3ccc(I)cc3)cccc12.[177Lu+3]` is reported as 9.73 ± 0.51% (4 h; relative to: added dose).
The IC50 of `Cc1cc2cc(C(=O)N(Cc3ccc(C(F)(F)F)cn3)[C@H](C)c3ncccn3)ccc2nc1N` is reported as 65 nM.
With `CCOc1cncc(-c2ccc(NC(=O)C3(c4ccnc(NS(=O)(=O)C5CC5)n4)CCOCC3)nc2)n1` the IC50 was 10000 nM (cell growth or viability, ATP luminescence; 72 h).
`CC(C)c1ccc(N(C)c2ccc3c(c2)OCC[C@H]3CNc2cnccc2C(=O)O)cc1` has an IC50 of 14.7 nM (cell growth or viability, ATP luminescence; 7 days).
For `Cn1ncc(-c2ccc3c(=O)[nH]nc(CN)c3c2)c1-c1c(F)c(Cl)cc(OC2CC2)c1C#N`, the IC50 was 50 nM (cell viability, inhibitor, CellTiter-Glo; 120 h).
`O=C(CCl)c1ccccc1Nc1cccc(C(F)(F)F)c1` has a GI50 of 7.71 µM (cell growth or viability, SRB; 48 h).
`COc1cc(/C=C/c2cc(-[c-]3cccc3)[nH]n2)ccc1O.[Fe+2].c1cc[cH-]c1` gave an inhibition of about 60% (mitochondrial activity, MTT; 12.5 µM, 48 h).
With `N#Cc1cccc(/C=C/C(=O)c2ccc(O)cc2)c1` the fold change was 34.5 (item: OTUD1; concentration not given; relative to: untreated).
`C=CCOCO[C@H](C(=O)NC[C@@H]1C[C@@H](OC)C(C)(C)[C@@H](C[C@@H](COC)OC)O1)[C@@]1(OC)CC(=C)[C@@H](C)[C@@H](C)O1` has an IC50 of 1230 ± 329 nM (cell viability, sulforhodamine B; 72 h, 37 °C, together with: H2O2 100 µM).
`COc1cccc(-c2onc3nc(Nc4ccc(S(N)(=O)=O)cc4)sc23)c1O` has an IC50 of 1150 nM (MTT).
`COc1ccc(CNc2ccc3c(c2)S(=O)(=O)C=C3)cc1` has a viability of 65% (resazurin; 5 µM, 24 h).
`CN(C)c1ccc(/C=C/c2cc(/C=C3\Sc4ccccc4N3CCCN3CCCC3)c3ccccc3[n+]2C)cc1` has an IC50 of 5200 nM (cell growth or viability, MTT; 36 h).
For `CCN(C(=O)c1cc(F)ccc1Oc1nncnc1N1CCC2(C1)CN([C@H](CCCN(C)CCOC)C(C)C)C2)C(C)C`, the GI50 was over 10 µM (72 h).

For quick reference, copied from above:
`C=CCOCO[C@H](C(=O)NC[C@@H]1C[C@@H](OC)C(C)(C)[C@@H](C[C@@H](COC)OC)O1)[C@@]1(OC)CC(=C)[C@@H](C)[C@@H](C)O1` has an IC50 of 1230 ± 329 nM (cell viability, sulforhodamine B; 72 h, 37 °C, together with: H2O2 100 µM).
`COc1ccc(CNc2ccc3c(c2)S(=O)(=O)C=C3)cc1` has a viability of 65% (resazurin; 5 µM, 24 h).
